# Measurements collected from several papers.
# Each numbered part is a random draw from the data of one study; scales do not carry over between parts. Several values in a cell are separate wells, animals, samples, runs or records.
# Chain of UniProt Q9UQB9 (whole entry, looked up): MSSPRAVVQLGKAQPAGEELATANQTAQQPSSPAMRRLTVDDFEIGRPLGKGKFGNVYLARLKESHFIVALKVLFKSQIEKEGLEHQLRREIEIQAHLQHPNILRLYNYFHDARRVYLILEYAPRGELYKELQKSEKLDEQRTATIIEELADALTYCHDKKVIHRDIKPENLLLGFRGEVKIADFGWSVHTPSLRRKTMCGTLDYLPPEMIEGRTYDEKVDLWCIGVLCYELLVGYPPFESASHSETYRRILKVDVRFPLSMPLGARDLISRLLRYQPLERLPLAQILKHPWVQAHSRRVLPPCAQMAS
# Chain of UniProt O75116 (whole entry, looked up): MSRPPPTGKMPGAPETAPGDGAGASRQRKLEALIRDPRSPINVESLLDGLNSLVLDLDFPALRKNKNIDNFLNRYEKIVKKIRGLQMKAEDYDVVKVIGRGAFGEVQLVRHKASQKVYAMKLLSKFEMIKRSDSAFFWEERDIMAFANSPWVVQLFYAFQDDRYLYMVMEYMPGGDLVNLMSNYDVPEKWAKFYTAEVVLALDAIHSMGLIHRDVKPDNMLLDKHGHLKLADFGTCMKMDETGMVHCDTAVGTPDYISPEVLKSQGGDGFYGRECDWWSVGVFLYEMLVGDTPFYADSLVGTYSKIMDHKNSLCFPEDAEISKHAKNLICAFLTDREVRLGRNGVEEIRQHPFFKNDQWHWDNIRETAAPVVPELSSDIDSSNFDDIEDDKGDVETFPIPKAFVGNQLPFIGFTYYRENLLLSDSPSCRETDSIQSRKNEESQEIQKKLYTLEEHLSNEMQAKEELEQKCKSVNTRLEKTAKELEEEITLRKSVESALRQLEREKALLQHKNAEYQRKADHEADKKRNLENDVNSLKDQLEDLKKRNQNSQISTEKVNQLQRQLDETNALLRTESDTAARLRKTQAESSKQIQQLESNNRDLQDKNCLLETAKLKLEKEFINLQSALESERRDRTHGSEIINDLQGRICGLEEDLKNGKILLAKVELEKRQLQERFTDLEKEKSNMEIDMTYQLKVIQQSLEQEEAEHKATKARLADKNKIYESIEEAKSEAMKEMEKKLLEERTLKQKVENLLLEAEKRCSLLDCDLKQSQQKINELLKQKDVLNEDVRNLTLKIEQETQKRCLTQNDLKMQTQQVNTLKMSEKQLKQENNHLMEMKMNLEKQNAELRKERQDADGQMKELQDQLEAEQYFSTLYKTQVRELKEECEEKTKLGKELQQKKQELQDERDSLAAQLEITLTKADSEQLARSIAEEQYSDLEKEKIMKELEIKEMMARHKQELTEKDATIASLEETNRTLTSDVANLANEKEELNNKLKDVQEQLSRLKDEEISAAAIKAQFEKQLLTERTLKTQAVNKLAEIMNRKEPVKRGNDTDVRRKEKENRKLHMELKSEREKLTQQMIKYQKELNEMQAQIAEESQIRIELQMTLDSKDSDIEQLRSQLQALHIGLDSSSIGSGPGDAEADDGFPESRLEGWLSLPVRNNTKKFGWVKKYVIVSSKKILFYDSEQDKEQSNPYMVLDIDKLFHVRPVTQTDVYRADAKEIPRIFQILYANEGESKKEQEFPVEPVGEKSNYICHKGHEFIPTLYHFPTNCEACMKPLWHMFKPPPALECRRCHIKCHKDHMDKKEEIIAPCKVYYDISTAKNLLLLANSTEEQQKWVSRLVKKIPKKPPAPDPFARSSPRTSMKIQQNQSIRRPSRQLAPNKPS
# Chain of UniProt P29322 (whole entry, looked up): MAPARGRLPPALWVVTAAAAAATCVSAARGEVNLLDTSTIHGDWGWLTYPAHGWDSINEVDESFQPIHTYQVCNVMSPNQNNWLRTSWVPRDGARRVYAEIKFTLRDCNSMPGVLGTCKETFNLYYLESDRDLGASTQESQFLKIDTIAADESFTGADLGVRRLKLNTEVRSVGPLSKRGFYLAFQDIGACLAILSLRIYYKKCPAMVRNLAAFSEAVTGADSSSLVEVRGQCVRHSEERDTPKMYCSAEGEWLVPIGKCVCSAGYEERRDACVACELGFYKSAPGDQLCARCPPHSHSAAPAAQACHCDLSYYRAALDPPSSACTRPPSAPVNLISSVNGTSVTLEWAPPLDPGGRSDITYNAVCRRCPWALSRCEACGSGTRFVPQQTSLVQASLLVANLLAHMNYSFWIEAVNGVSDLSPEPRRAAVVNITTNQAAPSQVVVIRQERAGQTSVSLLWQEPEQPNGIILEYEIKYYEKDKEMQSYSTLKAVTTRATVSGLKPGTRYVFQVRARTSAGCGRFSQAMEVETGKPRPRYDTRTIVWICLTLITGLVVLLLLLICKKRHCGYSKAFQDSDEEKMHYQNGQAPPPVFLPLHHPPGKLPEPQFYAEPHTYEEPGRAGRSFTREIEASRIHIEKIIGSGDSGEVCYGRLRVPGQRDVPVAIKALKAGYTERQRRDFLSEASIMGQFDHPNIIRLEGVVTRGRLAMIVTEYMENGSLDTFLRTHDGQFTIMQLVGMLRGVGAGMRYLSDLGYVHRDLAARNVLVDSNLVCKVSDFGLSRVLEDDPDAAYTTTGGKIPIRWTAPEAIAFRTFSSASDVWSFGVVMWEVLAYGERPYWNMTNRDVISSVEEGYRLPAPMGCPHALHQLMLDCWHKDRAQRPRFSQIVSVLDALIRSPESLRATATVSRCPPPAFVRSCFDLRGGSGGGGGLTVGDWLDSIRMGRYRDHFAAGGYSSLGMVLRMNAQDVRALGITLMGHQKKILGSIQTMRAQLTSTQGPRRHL
# Chain of UniProt Q9Y6E0 (whole entry, looked up): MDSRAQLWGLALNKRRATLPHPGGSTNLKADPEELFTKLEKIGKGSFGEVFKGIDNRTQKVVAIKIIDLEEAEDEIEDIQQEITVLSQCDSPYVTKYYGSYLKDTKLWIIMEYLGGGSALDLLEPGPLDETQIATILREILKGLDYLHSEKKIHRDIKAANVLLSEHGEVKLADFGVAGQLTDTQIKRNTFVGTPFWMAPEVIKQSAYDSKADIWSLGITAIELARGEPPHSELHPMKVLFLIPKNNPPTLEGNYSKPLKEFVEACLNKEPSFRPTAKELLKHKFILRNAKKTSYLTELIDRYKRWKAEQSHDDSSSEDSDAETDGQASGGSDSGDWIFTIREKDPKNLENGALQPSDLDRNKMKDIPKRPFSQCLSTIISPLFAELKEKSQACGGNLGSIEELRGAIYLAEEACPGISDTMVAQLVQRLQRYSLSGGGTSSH

# Block 1
# Target: Focal adhesion kinase 1 (PTK2, Homo sapiens, UniProt Q05397)
# Chain of UniProt Q05397 (whole entry, looked up): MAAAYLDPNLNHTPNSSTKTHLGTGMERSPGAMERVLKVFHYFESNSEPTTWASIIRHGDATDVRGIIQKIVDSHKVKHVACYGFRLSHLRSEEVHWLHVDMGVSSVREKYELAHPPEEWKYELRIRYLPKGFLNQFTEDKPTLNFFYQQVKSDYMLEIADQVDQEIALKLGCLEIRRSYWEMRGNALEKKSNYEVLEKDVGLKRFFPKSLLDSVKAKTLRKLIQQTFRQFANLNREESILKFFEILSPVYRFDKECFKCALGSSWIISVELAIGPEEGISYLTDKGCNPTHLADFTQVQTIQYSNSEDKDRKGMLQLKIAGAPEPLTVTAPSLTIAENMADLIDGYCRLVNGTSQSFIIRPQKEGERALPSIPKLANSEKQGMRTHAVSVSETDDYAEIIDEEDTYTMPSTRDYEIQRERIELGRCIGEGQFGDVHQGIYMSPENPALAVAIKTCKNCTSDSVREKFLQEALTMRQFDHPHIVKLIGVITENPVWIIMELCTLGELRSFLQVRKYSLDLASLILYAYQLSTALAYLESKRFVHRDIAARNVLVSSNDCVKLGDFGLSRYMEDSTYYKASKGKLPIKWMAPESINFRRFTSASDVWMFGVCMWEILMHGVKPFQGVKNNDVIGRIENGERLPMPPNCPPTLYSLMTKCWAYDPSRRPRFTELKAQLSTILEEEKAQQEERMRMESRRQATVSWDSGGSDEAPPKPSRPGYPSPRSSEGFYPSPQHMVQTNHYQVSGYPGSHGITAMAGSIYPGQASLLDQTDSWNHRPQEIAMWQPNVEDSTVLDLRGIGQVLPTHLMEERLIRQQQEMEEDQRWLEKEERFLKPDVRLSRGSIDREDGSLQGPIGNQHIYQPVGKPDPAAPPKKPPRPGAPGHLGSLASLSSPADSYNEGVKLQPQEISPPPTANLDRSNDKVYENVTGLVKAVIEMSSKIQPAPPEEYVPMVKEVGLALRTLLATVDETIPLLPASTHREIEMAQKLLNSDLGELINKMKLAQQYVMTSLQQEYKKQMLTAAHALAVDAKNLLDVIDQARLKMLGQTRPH
# Effect on: enzyme activity
# Mode: inhibitor
# Tested at: 0.5 µM
# Relative to: control
SMILES,remaining activity
O=C1NC(=O)/C(=C/c2ccc3c(c2)OC(F)(F)O3)S1,94.9%
C[C@@H](N)[C@H]1CC[C@H](C(=O)Nc2ccncc2)CC1,97.5%
Nc1nc(Nc2ccc(S(N)(=O)=O)cc2)nn1C(=S)Nc1c(F)cccc1F,25.3%
O=C(c1ccccc1)c1ccc(N2CCOCC2)cc1O,109%
CC(C)(C)c1nc2c3cc[nH]c(=O)c3c3cc(F)ccc3c2[nH]1,35.3%
NC(=O)c1cccc(-c2cc(Nc3ccc(OC(F)(F)F)cc3)ncn2)c1,100%

# Block 2
# SMILES: CS(=O)(=O)N1CCCC(NC(=O)[C@H](CCC2CCCCC2)NC(=O)c2ccc(CNC(=O)c3cnc4ccccn34)cc2)C1 (stereo partly drawn)
# Tested at: 0.1 µM
target,effect on,method,remaining binding [%]
"STK24 (Homo sapiens, UniProt Q9Y6E0)",cell-free assay,competition with immobilised ligand,95
"PTK2 (Homo sapiens, UniProt Q05397)",cell-free assay,competition with immobilised ligand,92
"GAK (Homo sapiens, UniProt O14976)",cell-free assay,competition with immobilised ligand,96
"SGK2 (Homo sapiens, UniProt Q9HBY8)",cell-free assay,competition with immobilised ligand,100
"ROCK2 (Homo sapiens, UniProt O75116)",cell-free assay,competition with immobilised ligand,100
"SIK1 (Homo sapiens, UniProt P57059)",,competition binding,92
"Non-receptor tyrosine-protein kinase TYK2, JH2 (TYK2, Homo sapiens, UniProt P29597)",cell-free assay,competition with immobilised ligand,86
"EPHA8 (Homo sapiens, UniProt P29322)",cell-free assay,competition with immobilised ligand,89
"DYRK1B (Homo sapiens, UniProt Q9Y463)",cell-free assay,competition with immobilised ligand,100
"Aurora kinase C (AURKC, Homo sapiens, UniProt Q9UQB9)",cell-free assay,competition with immobilised ligand,98
"FLT4 (Homo sapiens, UniProt P35916)",cell-free assay,competition with immobilised ligand,95

# Block 3
# Cell line: HaCaT
# Tested at: 100 µM
# Time: 18 h
Structure (SMILES),viability [%]
C[N+](C)(C)CCO,98.6
CO[C@@]1(NC(=O)Cc2cccs2)C(=O)N2C(C(=O)O)=C(COC(N)=O)CS[C@@H]21,91.5
N=C(N/N=C/c1ccc(Cl)cc1)N/N=C/c1ccc(Cl)cc1,19.6
COc1ccc2cc(CCC(C)=O)ccc2c1,96
Nc1ccccc1S(N)(=O)=O,99.9
CCCSc1nc(N[C@@H]2C[C@H]2c2ccc(F)c(F)c2)c2nnn([C@@H]3C[C@H](OCCO)[C@@H](O)[C@H]3O)c2n1,15.4
O=C(O)c1ccccc1OP(=O)(O)O,113

# Block 4
# Compound: O=C1CCC(N2Cc3cc(C4CCN(Cc5ccccc5)CC4)ccc3C2=O)C(=O)N1 (stereo not drawn)
# Matrix: plasma
species,route,dose,half-life
male ICR mice,oral,3.0 mg/kg,1.19 h and 1.35 h
male ICR mice,intravenous,1.0 mg/kg,3.9 h and 3.02 h
rat Sprague Dawley male,oral,3.0 mg/kg,1.22 h and 1.52 h
"ICR mouse, male",intravenous,1.0 mg/kg,2.93 h
rat Sprague Dawley male,intravenous,1.0 mg/kg,2.48 h and 4.94 h and 5.45 h
"Sprague Dawley rat, male",oral,3.0 mg/kg,1.18 h

# Excerpt of the above (block 2):
target,effect on,method,remaining binding [%]
"SGK2 (Homo sapiens, UniProt Q9HBY8)",cell-free assay,competition with immobilised ligand,100
"GAK (Homo sapiens, UniProt O14976)",cell-free assay,competition with immobilised ligand,96
"PTK2 (Homo sapiens, UniProt Q05397)",cell-free assay,competition with immobilised ligand,92
"FLT4 (Homo sapiens, UniProt P35916)",cell-free assay,competition with immobilised ligand,95
